Experimental data gathered from unrelated publications.
Each numbered part is a random draw from the data of one study; scales do not carry over between parts. Positions count from the first letter of the parent shown.

Study 1
Target: Histone acetyltransferase KAT6A, both winged helices, GST fusion (KAT6A, Homo sapiens, UniProt Q92794, residues 1-181)
Technique: protein binding microarray
Form: double-stranded DNA, one strand shown
Matrix: in vitro
Tested at: not given
Notes: 8-mer, flanks averaged, mean of 2 arrays, mostly near background
Baseline: not given
Direction: higher = stronger binding
Construct (chain): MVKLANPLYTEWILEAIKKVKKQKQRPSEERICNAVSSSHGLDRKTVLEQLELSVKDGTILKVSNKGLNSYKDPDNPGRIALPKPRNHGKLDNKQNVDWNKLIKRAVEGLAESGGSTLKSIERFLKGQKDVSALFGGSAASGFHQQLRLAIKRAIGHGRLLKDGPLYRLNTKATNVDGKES
Strand | E-score
AATATTAC | 0.00568
AGGATACT | -0.0714
CCCTATGA | -0.142
CTAACTAG | -0.0161
CACCGTCG | 0.22
CAGCCGCA | 0.0379

Study 2
Target: Interferon regulatory factor 5, full length, phosphomimetic (IRF5, Homo sapiens, UniProt Q13568-2, residues 1-514, S451D/S453D/S456D/S462D)
Technique: protein-binding microarray
Form: double-stranded DNA, one strand shown
Matrix: in vitro
Tested at: 940 nM top
Notes: 60-bp whole probe
Added: salmon DNA 0.4 mg/ml
Baseline: random background probes
Direction: higher = stronger binding
Shared flanks, not repeated: GCCTAGCAC … GTCTTGATTCGCTTGACGCTGCTG
Strand | fitted relative affinity
TTAGATTTCTGTCTCGATTAGTGCTAG | 3.08 z-score
GACGAACTGGGGACTTGAGACGTGCTA | 0.0808 z-score
GTAGGTATCGGTATCGGTTAGTGCTAG | 10.4 z-score
TCATTAATGCTTCTGGGACTGTGCTAG | 0.0825 z-score
TCAAATACAAGTTTCTCACTGTGCTAG | 0.73 z-score
GACGAACTGGGGACTCGAGACGTGCTA | -0.0835 z-score
GTCGATCTCAGTTTCGAGACGTGCTAG | 6.57 z-score

Study 3
Target: CCNA1, cyclin fold, Cln2 fusion (human)
Technique: yeast growth competition, sequencing
Matrix: yeast
Notes: weak parent motif
Baseline: not given
Direction: higher = stronger binding
Starting sequence: PKN2 docking peptide (human); VSAVQKLDFSDTM; partner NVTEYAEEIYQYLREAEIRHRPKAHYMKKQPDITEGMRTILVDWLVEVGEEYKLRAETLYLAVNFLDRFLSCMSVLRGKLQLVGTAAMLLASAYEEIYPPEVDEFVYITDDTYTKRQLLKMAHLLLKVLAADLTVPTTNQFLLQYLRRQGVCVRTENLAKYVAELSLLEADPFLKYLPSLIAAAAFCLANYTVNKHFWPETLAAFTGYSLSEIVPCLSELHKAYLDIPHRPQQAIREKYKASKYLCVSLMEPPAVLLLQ
Change | normalised enrichment score
F9H | 0.119
S2I | 0.238
D11M | -0.0251
S2F | 0.0119
F9Y | 0.51
S10V | 0.233
D11G | 0.352
D8W | 0.371
L7C | 0.239

Further values, each from its own experiment
Molecule | target | test | test system | setting | scale | quantity | value
PhoQ, residues 284 288 289 292 302 303 NLALSC | PhoP, residues 12 14 15 18 19 DLLYY (Escherichia coli, UniProt P23836) | Sort-seq, item: YFP reporter | E. coli | PhoQ-PhoP variant library, added: 10 µM Mg2+ | baseline: high Mg2+ state, higher = stronger signaling | fold induction | 0.426

Repeated from above (study 1):
Strand | E-score
CACCGTCG | 0.22
CAGCCGCA | 0.0379
